Values quoted from earlier work as cited in several papers.
Converted amounts (≈) assume the structure as drawn.

Compound = Cc1nc(C)c(-c2ccc(Oc3ccc(OC(F)(F)F)cc3)cc2)c(O)c1I; tested on = Plasmodium falciparum; assay = whole cell extended time; system = 3D7; conditions = 72 h; endpoint = IC50; value = 130 nM
Compound = CNC(C)C1CCC(N)C(OC2C(N)CC(N)C(OC3OCC(C)(O)C(NC)C3O)C2O)O1 (stereo not drawn); tested on = Acinetobacter baumannii; system = clinical isolate RKI-No_3/15; endpoint = MIC; value = 2 µg/mL (≈ 4.19 µM)
Compound = COc1ccccc1Oc1cccc(CN2CCC(O)(c3ccccc3C(=O)O)CC2)c1; tested on = human CCR8 F123A mutant (TM3); assay = IP accumulation, agonist; endpoint = EC50; value = 21 nM
Compound = C=Cc1cc(NC(=O)N2CCc3cc(OC)c(C(F)(F)F)cc32)cc(-c2cccnc2)c1; tested on = Plasmodium falciparum; assay = whole cell extended time; system = 3D7; conditions = 72 h; endpoint = IC50; value = 700 nM
Compound = C[C@H]1COCCN1c1nc(-c2cnc(N)cc2C(F)F)nc(N2CCOCC2)n1; tested on = SW480; endpoint = GI50; value = 713 nM
Compound = CCN(c1cc(-c2ccc(CN3CCOCC3)cc2)cc(C(=O)NCc2c(C)cc(C)[nH]c2=O)c1C)C1CCOCC1; system = epithelioid sarcoma patients; conditions = phase II basket; endpoint = IRC-assessed ORR; value = 15%
Compound = COc1ccccc1Oc1cccc(CN2CCC(NC(=O)C(CCN3CCCC3)c3ccccc3)CC2)c1 (stereo not drawn); tested on = human CCR8 G206W mutant (TM5); assay = IP accumulation, agonist; endpoint = EC50; value = 42 nM
Compound = Cc1c(C#N)cccc1[C@@H](C)Nc1nnc(C)c2cnc(N3CCOCC3)cc12; tested on = MKN-1; assay = 3D cell viability; conditions = 7 d; endpoint = IC50; value = > 1000 nM
Compound = CCNS(=O)(=O)c1ccc(OC)cc1C1(O)CCN(Cc2cccc(Oc3ccccc3OC)c2)CC1; tested on = human CCR8 F46A mutant (TM1); assay = IP accumulation, agonist; endpoint = EC50; value = 50 nM
Compound = CN(C)c1ccc(C=CC(=O)NC(=O)c2ccccc2O)cc1; tested on = Plasmodium falciparum; assay = whole cell extended time; system = 3D7; conditions = 72 h; endpoint = IC50; value = 230 nM
Compound = COc1ccccc1Oc1cccc(CN2CCC(NC(=O)C3CC(=O)Nc4ccccc43)CC2)c1 (stereo not drawn); tested on = human CCR8 W194A mutant (TM5); assay = IP accumulation, agonist; endpoint = EC50; value = 30 nM
Compound = Nc1cc(C(F)(F)F)c(-c2nc(N3CCOCC3)nc(N3CCOCC3)n2)cn1; tested on = A204; endpoint = GI50; value = 102 nM
Compound = CCCCCCc1c(C)nc2cc(OC)ccc2c1O; tested on = Plasmodium falciparum; assay = whole cell extended time; system = 3D7; conditions = 72 h; endpoint = IC50; value = 120 nM
Compound = CC1(C)S[C@@H]2[C@H](NC(=O)[C@H](N)c3ccccc3)C(=O)N2[C@H]1C(=O)O; tested on = Acinetobacter baumannii; system = clinical isolate RKI-No_272/16; endpoint = MIC; value = > 16 µg/mL
Compound = Cc1[nH]c(C)c(-c2ccc(Nc3ccc(C(F)(F)F)cn3)cc2)c(=O)c1Br; tested on = Plasmodium falciparum; assay = whole cell extended time; system = 3D7; conditions = 72 h; endpoint = IC50; value = 30 nM
Compound = Nc1cccc2c1C(=O)N(C1CCC(=O)NC1=O)C2=O (stereo not drawn); system = relapsed refractory multiple myeloma patients; conditions = dose not given, bortezomib and lenalidomide refractory; endpoint = minimal response or better rate; value = 30%
Compound = Cc1[nH]c(C)c(-c2ccc(-c3ccc(F)cc3)cc2)c(=O)c1Br; tested on = Plasmodium falciparum; assay = whole cell extended time; system = 3D7; conditions = 72 h; endpoint = IC50; value = 1070 nM
Compound = COc1ccccc1Oc1cccc(CN2CCC3(CC2)C(=O)NCN3CCc2ccccc2)c1; tested on = human CCR8 F254A mutant (TM6); assay = IP accumulation, agonist; endpoint = EC50; value = 0.57 nM
